Published values of several laboratories.
Each line is one published result; not all experiments were run side by side. Several values in a cell are separate wells, animals, samples, runs or records. ± marks the error that the study gave. In brackets after ≈: the same amount, converted by molar mass.

CC(c1ccccc1)(c1ccc(O)cc1)c1ccc(O)cc1 — result for “G2 phase cells”: 19.9 ± 4.1% (HepG2 spheroids; Hoechst flow cytometry; 10 µM, 96 h).
O=C1CCP(=S)(c2ccccc2)CC1 has an IL-6 level of 0.3 ± 0.01 pg/mL (SW-620; ELISA; IC50, 72 h).
Cc1cc(C(C)(C)c2ccc(O)c(C)c2)ccc1O — result for “G2 phase cells”: 17.8 ± 4.56% (HepG2 spheroids; Hoechst flow cytometry; 10 µM, 24 h).
For O=C(O)c1[nH]c(=O)[nH]c(=O)c1F, the inhibition was -32.9% (THP-1; pyroptotic LDH release; 2 µM, 40 min, added: LPS then nigericin).
Nc1ncnc2c1ncn2[C@@H]1O[C@@H]2COP(=O)(O)O[C@H]3[C@@H](O)[C@H](n4cnc5c(=O)[nH]cnc54)O[C@@H]3COP(=O)(O)O[C@H]2[C@H]1O gave a fold enrichment of 28.4 (HFF-1; RNA sequencing, measured: Reactome endosomal/vacuolar pathway; upregulated pathways; reference: mock).
The selectivity ratio of OC1CCN(c2ccc(/C=N/NC(=S)Nc3cccc(Cl)c3Cl)cc2)CC1 is reported as 28.9 (BEAS-2B and A549; MTT; reference: IC50 BEAS-2B over IC50 A549).
With COc1cc(CCC[P+](c2ccccc2)(c2ccccc2)c2ccccc2)c(OC)c2c1OCO2.[I-] the TGI was -4.63 log M (TK-10; SRB).
With C[C@@]12OC(=O)[C@]1([C@@H](O)[C@@H]1C=CCCC1)NC(=O)[C@@H]2CCCl the EC50 was 0.13 µM (HEK293T ATF4-FLuc reporter; ATF4 reporter gene, activator, luciferase reporter).
With CCN(CC)c1ccc(C=NNC(=O)CSc2nc3ccccc3c(=O)n2Cc2ccc(S(N)(=O)=O)cc2)c(O)c1 the CC50 was greater than 100 µM (OVCAR-4; NCI five-dose screen).
CN(C)C(=S)SSC(=S)N(C)C gave a luciferase activity of 325 fold (LUHMES MT1G-HiBiT G3; measured: MT1G; 2 µM, 24 h; reference: DMSO, maximum).
COc1ccc2c(c1)[nH]c1c(C)nccc12 gave a DNA methylation of 89.3% (DU-145; bisulfite pyrosequencing, measured: RASSF1A promoter CpG site 8; 10 µM, 16 h).
For C[C@]12CC[C@H]3[C@@H](CC[C@]4(O)C[C@@H](O)CC[C@]34C=O)[C@@]1(O)CC[C@@H]2C1=CC(=O)OC1, “MyBP-C level change” read 19.2 SD (human iPSC cardiomyocytes; plate-normalised; concentration not given, hit retest; reference: vehicle controls, SDs below control).
C[C@@H]1C[C@@H]([C@H](O)CC2CC(=O)NC(=O)C2)C(=O)[C@@H](C)C1 has a Z score of -0.597 (MDA-MB-231 BAX/BAK siRNA knockdown; cell viability, CellTiter-Glo; direction not given).
For COc1ccc(C=O)cc1O, the inhibition was -5.84% (THP-1; pyroptotic LDH release; 2 µM, 40 min, added: LPS then nigericin).
O=S(=O)(c1ccc(O)cc1)c1ccc(O)cc1 — result for “G2 phase cells”: 12.1 ± 3.42% (HepG2 spheroids; Hoechst flow cytometry; 0.10 µM, 96 h).
For CN1CCc2[nH]c(-c3ccnc(NC(=O)[C@@H](CC(F)F)c4ccc(F)cc4)c3)c(Nc3ccccc3)c2C1=O, “log2 fold change” read -3.23 (MOLM-13; mRNA level, RNA-seq, measured: SLC7A5; 200 nM, 24 h; reference: DMSO).
The CC50 of Cn1cncc1C1=CN(c2ncnc3[nH]cnc23)CCS1 is reported as greater than 200 µM (OVCAR-4; ovarian cancer).
For Cc1nn(-c2nc3c(F)cc(F)cc3s2)c(O)c1C(c1ccc(C(F)(F)F)cc1)c1c(C)nn(-c2nc3c(F)cc(F)cc3s2)c1O, the viability was 102% and 108% and 98.5% and 105% (RAW-ISG; CCK-8; 3.125 µM).
Under “MyBP-C level change”, CC1=C(O)C(=O)C=C2C1=CC=C1[C@@]2(C)CC[C@@]2(C)[C@@H]3C[C@](C)(C(=O)O)CC[C@]3(C)CC[C@]12C is recorded as 14.2 SD (human iPSC cardiomyocytes; plate-normalised; concentration not given, hit retest; reference: vehicle controls, SDs below control).
O=C(O)c1cc(-c2ccc(Br)cc2)nc2ccc(Cl)cc12 has a selectivity index of 1.49 (Huh-7; MTT; reference: CC50 over IC50).
CC(C)(C)c1cc(C=C(C#N)C#N)cc(Br)c1O: membrane expression “decreased” (hCMEC/D3; outcome: decreased, Western blot, measured: insulin receptor β; 100 µM, added: insulin 100 nM).
With CN1CCN(C2(CNC3CCN(c4cccc(-c5cc6cc(F)ccc6[nH]5)c4)CC3)CCC2)CC1 the CC50 was 6.14 µM (CAKI-1).
With CCCC[C@@H]1NC(=O)[C@H](Cc2ccc(O)cc2)NC(=O)[C@@H]2CCCN2C(=O)[C@H](CC(=O)O)NC(=O)[C@H](C)NC(=O)[C@H](Cc2ccccc2)NC(=O)[C@@H]2CSCCC(=O)N3CN(CN(C3)C(=O)CCSC[C@@H](C(=O)N[C@@H](CNC(=O)CCc3cn(CCOCCOCCOCCN(CCOCCOCCOCCC(=O)N[C@H]4CSCCC(=O)N5CN6CN(C5)C(=O)CCSC[C@H](NC(=O)[C@@H](CC(=O)O)NC(=O)[C@H](Cc5cccc7ccccc57)NC(=O)[C@@H]5CCCN5C4=O)C(=O)N[C@@H](CCSC)C(=O)N[C@@H](CCCCNC(=N)N)C(=O)N[C@@H](CC(=O)O)C(=O)N[C@@H](Cc4c[nH]c5ccccc45)C(=O)N[C@@H](CO)C(=O)N[C@@H]([C@@H](C)O)C(=O)N4CCC[C@H]4C(=O)N4C[C@H](O)C[C@H]4C(=O)N[C@@H](Cc4c[nH]c5ccccc45)C(=O)N[C@H](C(N)=O)CSCCC6=O)CCOCCOCCOCCn4cc(CCC(=O)NC[C@H](NC(=O)[C@@H]5CSCCC(=O)N6CN7CN(C6)C(=O)CCSC[C@H](NC(=O)[C@H](Cc6ccc(O)cc6)NC(=O)[C@@H]6CCCN6C(=O)[C@@H](C)NC(=O)[C@H](CCC(=O)O)NC(=O)[C@@H]6CCCN6C(=O)[C@H](CC(C)(C)C)NC(=O)[C@@H](NC(C)=O)CSCCC7=O)C(=O)N[C@@H](Cc6ccccc6)C(=O)N[C@@H](C)C(=O)N[C@@H](CC(=O)O)C(=O)N6CCC[C@H]6C(=O)N[C@@H](Cc6ccc(O)cc6)C(=O)N[C@@H](CCCC)C(=O)N5)C(N)=O)nn4)nn3)C(N)=O)NC1=O)C(=O)CCSC[C@H](NC(C)=O)C(=O)N[C@@H](CC(C)(C)C)C(=O)N1CCC[C@H]1C(=O)N[C@@H](CCC(=O)O)C(=O)N[C@H](C)C(=O)N1CCC[C@H]1C(=O)N[C@@H](Cc1ccc(O)cc1)C(=O)N2 the EC50 was 0.00047 ± 0.0003 µM (human PBMC with HT-1376 coculture; IL-2 secretion; added: anti-CD3).
Under “maximal ROS response”, COc1ccc2c(c1OC)CN1CCc3cc4c(cc3[C@@H]1C2)OCO4 is recorded as -73.8 ± 51.4% (HepaRG; ROS-Glo).
The CC50 of CC(C)N1CCC(NC2CCN(c3cccc(-c4cc5cc(F)ccc5[nH]4)c3)CC2)CC1 is reported as 6.19 µM (KM12).
CN(C)c1cc(NC(=O)CNC(C)(C)C)c(O)c2c1C[C@H]1C[C@H]3[C@H](N(C)C)C(O)=C(C(N)=O)C(=O)[C@@]3(O)C(O)=C1C2=O has an MIC of 0.125 mg/L (≈ 0.213 µM) (Escherichia coli DH5α expressing KPC-180; bacterial growth).
The LC50 of COc1c(CCC[P+](c2ccccc2)(c2ccccc2)c2ccccc2)cc2c(c1OC)OCO2.[I-] is reported as -4.44 log M (Malme-3M; SRB).
The inhibition of CN1C(=O)CCS(=O)(=O)C1c1ccc(Cl)cc1 (stereo not drawn) is reported as -1.58% (THP-1; pyroptotic LDH release; 2 µM, 40 min, added: LPS then nigericin).
The EC50 of CC[C@H](C)[C@H](NC(=O)[C@H](CCC(=O)O)NC(=O)[C@H](C)NC(=O)[C@H](Cc1c[nH]cn1)NC(=O)[C@H](C)NC(=O)[C@H](C)NC(=O)[C@H](Cc1c[nH]cn1)NC(=O)[C@@H](NC(=O)[C@H](C)NC(=O)[C@H](CCC(N)=O)NC(=O)[C@H](CO)NC(=O)[C@@H](NC(=O)[C@@H](N)CS)[C@@H](C)CC)C(C)C)C(=O)N[C@@H](CC(N)=O)C(=O)N[C@@H](CCC(=O)O)C(=O)N[C@@H](C)C(=O)NCC(=O)N[C@@H](CCCNC(=N)N)C(=O)O is reported as 1.5 mg/L (mouse OT-II CD4 T cells; ELISA, measured: IL-2; pulsed BMDCs 2 h co-culture 48 h).
CC(C)[C@H](N)C(=O)N1CCC[C@H]1B(O)O has an IL-1β release of 7.41 pg/mL (Ker-CT keratinocytes, CASP1 knockout; inducer, ELISA; concentration not given).
Under “normalized enrichment score”, C/C=C(/C)C(=O)O[C@H]1C(C)=C2[C@H]([C@@H]1OC(=O)CCCCCCC)[C@@](C)(OC(C)=O)C[C@H](OC(=O)CCC)[C@@]1(O)[C@H]2OC(=O)[C@@]1(C)O is recorded as -1.06 (HEK-293T; RNA-seq GSEA, measured: Hallmark interferon alpha response; 500 nM, 6 h; direction not given).
COc1c(C)c2c(c(O)c1C/C=C(\C)CCC(=O)O)C(=O)OC2 gave an IC50 of 0.355 µM (JAR; cell proliferation).
CC1(C(=O)O)C2CCC(O2)C1(C)C(=O)O (stereo not drawn) gave an EC50 of greater than 9.96 µM (HEK293T ATF4-FLuc reporter; ATF4 reporter gene, activator, luciferase reporter).
Cc1cnc2ccc3c(nc(N)n3C)c2n1 has a colony number of 91 colonies per plate and 100 colonies per plate (BALB/c 3T3; colony forming efficiency; 1 µM).
For Oc1cc(Cl)ccc1Oc1ccc(Cl)cc1Cl, “point of departure” read 1.23 µM (HepG2; extracellular flux, measured: reserve respiratory capacity; 24 h, representative mode).
The sublethal dose of CC[C@@H](C)[C@@H](NC(=O)[C@@H](Cc1c[nH]c2ccccc12)NC(=O)[C@@H](CCCNC(=N)N)NC(=O)[C@H](CCC(N)=O)NC(=O)[C@@H]1CCCN1C(=O)[C@H](CCCNC(=N)N)NC(=O)[C@H](CCCNC(=N)N)NC(=O)[C@H](CCCNC(=N)N)NC(=O)[C@H](CCC(N)=O)NC(=O)[C@H](CCCNC(=N)N)NC(=O)[C@H](CCCNC(=N)N)NC(=O)[C@H](CCCCN)NC(=O)[C@H](CCCCN)NC(=O)[C@H](CCCNC(=N)N)NC(=O)CN)C(=O)N[C@H](CCSC)C(=O)N[C@H](Cc1ccc(O)cc1)C(=O)N[C@H](Cc1ccccc1)C(N)=O is reported as 2 µM (SK-BR-3; MTT).
